Measurements pooled from the literature.
Numbered parts are unrelated; each lists some results of a single study.

Sample 1
Target: Ras GTPase-activating protein-binding protein 1, full length (G3BP1, Homo sapiens, UniProt Q13283)
Sequence of UniProt Q13283 (whole entry, looked up): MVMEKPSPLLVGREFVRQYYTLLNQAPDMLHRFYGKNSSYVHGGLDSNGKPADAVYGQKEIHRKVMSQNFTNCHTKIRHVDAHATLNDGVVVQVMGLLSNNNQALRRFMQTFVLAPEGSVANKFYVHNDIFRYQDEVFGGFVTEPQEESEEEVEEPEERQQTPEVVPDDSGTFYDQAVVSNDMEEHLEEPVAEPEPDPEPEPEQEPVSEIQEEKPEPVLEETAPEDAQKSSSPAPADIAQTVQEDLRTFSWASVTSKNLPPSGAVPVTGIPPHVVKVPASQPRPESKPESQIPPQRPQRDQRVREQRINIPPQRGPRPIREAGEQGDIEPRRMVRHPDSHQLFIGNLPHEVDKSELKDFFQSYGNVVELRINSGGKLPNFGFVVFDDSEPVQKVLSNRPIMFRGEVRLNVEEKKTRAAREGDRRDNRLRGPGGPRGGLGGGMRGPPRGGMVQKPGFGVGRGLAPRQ
Method: RNA Bind-n-Seq
Form: RNA
Medium: in vitro
Concentration: 200 nM
Setting: whole 134-nt RNA, ends assumed
Together with: 150 mM LiCl
Relative to: input library
Reading: higher = stronger binding
Library: 7-deaza-guanosine replaces G
`GGGAGUUCUACAGUCCGACGAUCCUGUGCUACACAUCGUAUGUACCGAAUCGGGGAAAAAAAGGGGAAAAAAAGGAAAAAAAGGGAAAGUAUUAUGUUACGCCGUUCGGAUCUUGGAAUUCUCGGGUGUCAAGG` gave a log2 enrichment of 0.374.
`GGGAGUUCUACAGUCCGACGAUCAGUCCUGUGCUACACAUCGUAUGUACCGAAUCGGUUUUUUUGGUUUUUUUGGUUUGGAAAGUAUUAUGUUACGCCGUUCGGAUCUGCACUUGGAAUUCUCGGGUGUCAAGG` has a log2 enrichment of -1.61.
The log2 enrichment of `GGGAGUUCUACAGUCCGACGAUCAAACAGCUCUAUAACAAAAUACAAUGCGGGUUCAUGUUAAUGUUUUUAUCUCUAACAGGUUGGUUUCAGUGCUGAUGAAACUUGGGACUCUGGAAUUCUCGGGUGUCAAGG` is reported as -2.35.
`GGGAGUUCUACAGUCCGACGAUCGCAGAAAGUAAAAACAAAUGGAAAUGCUUCGGAUAGUGGCAGGGGUGGGGGUUGCUAAGGAAAGGGUGGGAUGGGAGUGGGUAAAGAGUUUGGAAUUCUCGGGUGUCAAGG` gave a log2 enrichment of 0.127.

Sample 2
Target: Histone acetyltransferase KAT6A, winged helix 2, GST fusion (KAT6A, Homo sapiens, UniProt Q92794, residues 85-181)
Method: protein binding microarray
Form: double-stranded DNA, one strand shown
Medium: in vitro
Concentration: not given
Setting: 8-mer, flanks averaged, mean of 2 arrays, mostly near background
Relative to: not given
Reading: higher = stronger binding
Target sequence (chain): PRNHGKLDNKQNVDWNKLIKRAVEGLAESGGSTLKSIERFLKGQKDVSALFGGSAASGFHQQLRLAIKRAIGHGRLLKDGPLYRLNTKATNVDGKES
With `CTCTGGTC` the E-score was -0.0487.
`AATAGCCC` gave an E-score of -0.147.
The E-score of `ATGTTGAC` is reported as -0.078.

Mixed results
UNK zinc fingers 1-6, GST-SBP tag: RING finger protein unkempt homolog, zinc fingers 1-6, GST-SBP tag (UNK, Homo sapiens, UniProt Q9C0B0, residues 30-357)
Sequence of UniProt Q9C0B0 (30-357, looked up): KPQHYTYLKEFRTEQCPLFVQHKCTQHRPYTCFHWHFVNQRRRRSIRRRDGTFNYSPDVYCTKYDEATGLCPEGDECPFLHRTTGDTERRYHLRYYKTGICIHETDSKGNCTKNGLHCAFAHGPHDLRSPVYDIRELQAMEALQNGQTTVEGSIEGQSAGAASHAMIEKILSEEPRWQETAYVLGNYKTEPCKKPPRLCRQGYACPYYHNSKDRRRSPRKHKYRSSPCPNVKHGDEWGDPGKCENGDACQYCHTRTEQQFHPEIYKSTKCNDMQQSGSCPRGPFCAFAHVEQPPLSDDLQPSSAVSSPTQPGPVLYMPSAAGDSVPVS
With `GGGAGUUCUACAGUCCGACGAUCGGAGGAGAAGACAAGCUAAAAAUGAUUCGGGAAUAUCGGCAAAUGGUUGAGACUGAGCUAAAGUUAAUCUGUUGUGACAUUCUGGAUGUACUGGACAAACACCUCAUUCCAGCAGCUAACCAACAGAGGAUUGAGCAUCA` the bound/input enrichment was 0.476 ratio (UNK zinc fingers 1-6, GST-SBP tag; RNA Bind-n-Seq; RNA, in vitro; not given, RNA with constant flanks, human and mouse sites, ends assumed; relative to: input RNA pool, higher = stronger binding).
`PhoQ, residues 284 288 289 292 302 303 SLGVVW` gave a fold induction of 28.8 (PhoP, residues 12 14 15 18 19 SHWTV (Escherichia coli, UniProt P23836); Sort-seq, item: YFP reporter; E. coli; PhoQ-PhoP variant library, together with: 10 µM Mg2+; relative to: high Mg2+ state, higher = stronger signaling).
The bound/input enrichment of `GGGAGUUCUACAGUCCGACGAUCGGGGAGAAACCUUACGAGUGUGUGCAGUGUGGGAAAUCCUACAGUCAGAGCUCAAACCUCUUCAGACAUCAGAGACGACACAAUGCAGAAAAACUUUUGAAUGUUGUGAAGGUUUAAGAACAACAGAGGAUUGAGCAUCA` is reported as 0.243 ratio (UNK zinc fingers 1-6, GST-SBP tag; RNA Bind-n-Seq; RNA, in vitro; not given, RNA with constant flanks, human and mouse sites, ends assumed; relative to: input RNA pool, higher = stronger binding).

Excerpt of the above (sample 2):
`AATAGCCC` gave an E-score of -0.147.
